Assay results of several laboratories.
Each line is one published result; not all experiments were run side by side. Numbers after ± are the reported error. In brackets after ≈: the same amount, converted by molar mass.
Chain of UniProt Q9UMR5 (whole entry, looked up): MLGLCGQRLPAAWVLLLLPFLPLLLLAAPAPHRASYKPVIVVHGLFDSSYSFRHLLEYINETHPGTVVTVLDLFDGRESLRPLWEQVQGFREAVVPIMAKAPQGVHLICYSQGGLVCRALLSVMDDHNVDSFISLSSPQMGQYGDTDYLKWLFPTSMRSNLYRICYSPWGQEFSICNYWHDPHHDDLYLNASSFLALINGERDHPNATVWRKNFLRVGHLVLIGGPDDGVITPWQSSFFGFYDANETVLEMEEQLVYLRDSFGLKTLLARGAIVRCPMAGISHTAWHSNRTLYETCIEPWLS
Chain of UniProt P16152 (whole entry, looked up): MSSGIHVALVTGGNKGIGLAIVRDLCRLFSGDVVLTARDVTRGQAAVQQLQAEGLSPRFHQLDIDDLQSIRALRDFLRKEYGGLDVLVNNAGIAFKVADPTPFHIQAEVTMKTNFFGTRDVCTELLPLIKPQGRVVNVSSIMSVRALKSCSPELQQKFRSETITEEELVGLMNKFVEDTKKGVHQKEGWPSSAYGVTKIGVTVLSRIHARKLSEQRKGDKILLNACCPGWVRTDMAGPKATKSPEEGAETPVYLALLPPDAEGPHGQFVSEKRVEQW
Chain of UniProt Q13304 (whole entry, looked up): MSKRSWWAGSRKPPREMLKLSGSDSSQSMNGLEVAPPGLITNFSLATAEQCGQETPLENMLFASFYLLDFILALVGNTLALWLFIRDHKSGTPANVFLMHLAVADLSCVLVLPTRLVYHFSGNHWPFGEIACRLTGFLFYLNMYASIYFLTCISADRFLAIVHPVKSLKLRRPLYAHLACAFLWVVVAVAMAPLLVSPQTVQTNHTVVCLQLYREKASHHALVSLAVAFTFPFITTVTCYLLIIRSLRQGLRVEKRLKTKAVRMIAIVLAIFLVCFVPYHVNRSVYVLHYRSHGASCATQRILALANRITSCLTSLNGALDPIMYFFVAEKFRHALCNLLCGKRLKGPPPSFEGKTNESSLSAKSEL
Chain of UniProt P47901 (whole entry, looked up): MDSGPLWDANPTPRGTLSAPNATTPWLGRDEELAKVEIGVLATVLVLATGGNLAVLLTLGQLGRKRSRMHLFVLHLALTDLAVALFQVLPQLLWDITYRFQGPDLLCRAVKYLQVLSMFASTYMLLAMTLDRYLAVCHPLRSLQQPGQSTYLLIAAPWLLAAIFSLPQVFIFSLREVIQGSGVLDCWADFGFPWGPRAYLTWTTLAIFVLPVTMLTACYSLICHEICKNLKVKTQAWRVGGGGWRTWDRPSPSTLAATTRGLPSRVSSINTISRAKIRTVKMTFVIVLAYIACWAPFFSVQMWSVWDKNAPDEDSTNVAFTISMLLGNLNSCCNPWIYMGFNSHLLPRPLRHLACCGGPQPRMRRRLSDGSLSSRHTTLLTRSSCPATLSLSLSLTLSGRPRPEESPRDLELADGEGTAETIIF

Structure (SMILES)	tested on	test	test system	conditions	scale	quantity	value
COc1cc(Nc2ncc(F)c(Nc3ccc4c(n3)NC(=O)C(C)(C)O4)n2)cc(OC)c1OC	–	–	kinase assay buffer	3 h, 0.1% DMSO	–	solubility	41 µM (≈ 19.3 µg/mL)
C=CC(=O)Nc1cc(Nc2nccc(Nc3cc(Cl)c(F)cc3C(C)(C)O)n2)c(OC)cc1N1CC[C@@H](N(C)C)C1	–	treatment-emergent adverse events	human	oral, 300 mg, phase I clinical trial	–	incidence of blood creatine phosphokinase increased	17.6%
CN1CCN(S(=O)(=O)c2cc([N+](=O)[O-])ccc2N(CCOS(C)(=O)=O)CCOS(C)(=O)=O)CC1	–	–	NSG mice, plasma	intraperitoneal, 5 mg/kg, 1.5 h	–	concentration	not detected
OC[C@H]1OC(O)[C@H]([18F])[C@@H](O)[C@@H]1O (stereo partly shown)	–	PET	Sprague-Dawley rat, brain	intravenous, 2 h	–	SUV	5.2
COc1cc2c(Oc3ccc4[nH]c(C)cc4c3F)ccnc2cc1OCC1(N)CC1	–	–	paediatric refractory sarcoma patients	10 mg	–	sinus tachycardia incidence	0%
[O-][S+]1CCc2nc(N3CCC(c4ncc(Cl)cn4)CC3)nc(NC3(CO)CCC3)c21 (stereo not shown)	–	item: Diarrhoea	healthy male humans	12 mg twice daily	–	adverse event incidence	0%
CCc1ccc(CC/C=C/c2ccc3c(c2)C(=O)CC3)cc1	–	–	Sprague-Dawley rat, male	oral, 30 mg/kg/day, 14 days	–	TG	0.45 mM
NC(=O)c1cccc(-c2cc(OC(=O)NC3CCCCC3)ccc2O)c1	–	–	mouse	oral, 10 mg/kg	–	apparent clearance	622 mL/min/kg
CCC(C(=O)Nc1sc(C(N)=O)c(C)c1C(=O)OC)c1ccc(F)cc1 (stereo not shown)	–	–	human, cadaver skin	topical, dose not given, 24 h	–	total recovery	9.1%
CN1CCN(c2cc(-c3ccncc3)c(-c3ccc4ccccc4c3)nn2)CC1	AVPR1B (Homo sapiens, UniProt P47901)	agonist, FLIPR	–	12.5 µM	–	activation	0.3%
CC(C)[C@@H]1NC(=O)CNC(=O)[C@H](CC(N)=O)NC(=O)[C@H](CCCNC(=N)N)NC(=O)[C@H](Cc2ccc(O)cc2)NC(=O)[C@H](C(C)C)NC(=O)[C@@H](NC(=O)[C@@H](NC(=O)[C@H](CC(N)=O)NC(=O)[C@H](Cc2c[nH]c3ccccc23)NC(=O)[C@H](C)NC(=O)[C@H](Cc2ccccc2)NC(=O)CN)C(C)C)CSSC[C@@H](C(=O)N[C@@H](Cc2cnc[nH]2)C(=O)N[C@@H](CCCNC(=N)N)C(=O)N[C@@H](CCCNC(=N)N)C(=O)N[C@@H](C)C(=O)N[C@@H](CC(N)=O)C(N)=O)NC(=O)[C@H](C(C)C)NC(=O)[C@H](CCCNC(=N)N)NC1=O	–	–	ICR mice, blood	intraperitoneal, 10 mg/kg, day 5	–	basophils	1.58 ± 0.14%
CC(C)C[C@@H]1NC(=O)[C@H](CC(C)C)NC(=O)[C@H](Cc2c[nH]c3ccccc23)NC(=O)[C@H](CO)NC(=O)[C@H](Cc2c[nH]c3ccccc23)NC(=O)[C@@H]2CCCN2C(=O)[C@H](CC(C)C)NC(=O)[C@H](Cc2c[nH]cn2)NC(=O)[C@@H]2CCCN2C(=O)[C@H](CC(N)=O)NC(=O)[C@H](C)NC(=O)[C@H](Cc2ccc(O)cc2)NC(=O)[C@H](CS)NC(=O)[C@H](CCCCNC(=O)CN2CCN(CC(=O)O)CCN(CC(=O)O)CCN(CC(=O)O)CC2)NC1=O [lutetium-177 labelled]	–	–	Balb/c mouse, female, 4T1 tumour, lung	intravenous, 3.7 MBq, 1 h	–	tissue uptake	0.14 ± 0.02 %ID
CC[C@H](C)[C@@H]1NC(=O)[C@@H]2CSSC[C@H](NC(=O)[C@H](CCCNC(=N)N)NC(=O)[C@@H]3CSSC[C@H](NC1=O)C(=O)N[C@@H]([C@@H](C)O)C(=O)N[C@@H](CCCNC(=N)N)C(=O)NCC(=O)N[C@@H](Cc1ccccc1)C(=O)N3)C(=O)N[C@@H](CC(C)C)C(=O)N[C@H]1CSSC[C@H](NC(=O)[C@H](C(C)C)NC(=O)CNC(=O)[C@H](CCCNC(=N)N)NC(=O)[C@H](CCCNC(=N)N)NC1=O)C(=O)N[C@@H](CCCNC(=N)N)C(=O)N2	–	–	cynomolgus monkey, female, lung	10 mg/kg, histopathology, multifocal	direction not given	lung thrombosis score	1 to 2
CC(C)[C@@H]1NC(=O)[C@H](Cc2ccccc2)NC(=O)[C@@H]2NC(=O)[C@H](Cc3ccccc3)NC(=O)[C@@H]3CCCN3C(=O)CNC(=O)[C@H](Cc3ccccc3)NC(=O)[C@@H]3CNCCCC[C@@H](C(=O)O)NC(=O)[C@@H]4NC(=O)[C@H](CC(N)=O)NC(=O)CNC(=O)[C@H]([C@@H](O)C(=O)O)NC(=O)[C@H](CSC[C@@H](NC(=O)[C@H](CCC(N)=O)NC(=O)[C@H](CCCCNC(=O)c5ccc(NN)nc5)NC(=O)[C@@H](N)CS[C@H]4C)C(=O)N[C@@H](CS[C@H]2C)C(=O)N3)NC1=O [technetium-99m labelled]	–	–	rat, saline control, lung	intravenous, 2 h after tracer, tracer 24 h after reperfusion	–	tissue uptake	0.2 ± 0.06 %ID/g
CC[C@H](C)[C@H](NC(=O)[C@H](Cc1ccccc1)NC(=O)[C@H](CCC(=O)O)NC(=O)[C@H](CCCNC(=N)N)NC(=O)[C@H](C)NC(=O)[C@H](C)NC(=O)[C@H](CCC(N)=O)NC(=O)[C@H](CCC(=O)O)NC(=O)[C@H](CCC(=O)O)NC(=O)[C@H](CC(C)C)NC(=O)[C@H](Cc1ccc(O)cc1)NC(=O)[C@H](CO)NC(=O)[C@H](CO)NC(=O)[C@@H](NC(=O)[C@H](CC(=O)O)NC(=O)[C@H](CO)NC(=O)[C@@H](NC(=O)[C@H](Cc1ccccc1)NC(=O)[C@@H](NC(=O)CNC(=O)[C@H](CCC(=O)O)NC(=O)[C@H](C)NC(=O)CCc1cnc[nH]1)[C@@H](C)O)[C@@H](C)O)C(C)C)C(=O)N[C@@H](C)C(=O)N[C@@H](Cc1c[nH]c2ccccc12)C(=O)N[C@@H](CC(C)C)C(=O)N[C@H](C(=O)N[C@@H](CCCNC(=N)N)C(=O)NCC(=O)N[C@@H](CCCNC(=N)N)C(=O)N[C@@H](CCCCNC(=O)COCCOCCNC(=O)COCCOCCNC(=O)CC[C@H](NC(=O)CCCCCCCCCCCCCCCCC(=O)O)C(=O)O)C(=O)NCC(=O)NCC(=O)N[C@@H](CO)C(=O)N[C@@H](CCCCNc1c(NCCCCCN(O)C(=O)CCC(=O)NCCCCCN(O)C(=O)CCC(=O)NCCCCCN(O)C(C)=O)c(=O)c1=O)C(=O)N[C@@H](CCCCNc1c(NCCCCCN(O)C(=O)CCC(=O)NCCCCCN(O)C(=O)CCC(=O)NCCCCCN(O)C(C)=O)c(=O)c1=O)C(=O)O)C(C)C	GLP1R (Homo sapiens, UniProt P43220)	cAMP reporter gene, agonist, CRE luciferase	BHK	with Zr, 0% HSA	–	EC50	6.8 pM
CO[C@H]1C[C@@H]2CC[C@@H](C)[C@@](O)(O2)C(=O)C(=O)N2CCCC[C@H]2C(=O)O[C@H]([C@H](C)C[C@@H]2CC[C@@H](OC(=O)NCCOCCOCCOCCOCCOCCOCCOCCOCCC(=O)N3CCc4cc(Cn5nc(-c6ccc7oc(N)nc7c6)c6c(N)ncnc65)ccc4C3)[C@H](OC)C2)C[C@@H](O)[C@H](C)/C=C(\C)[C@@H](O)[C@@H](OC)C(=O)[C@H](C)C[C@H](C)/C=C/C=C/C=C/1C	–	phase 1 dose escalation	advanced solid tumour patients	intravenous, 10 mg weekly, grade ≥3	–	AEs causing dose modification	50%
Cn1cncc1-c1c(F)cncc1NC(=O)c1c(N)nn2cc(F)cnc12	–	–	human patients	oral, 180 mg once daily, 21 days	–	dose-limiting toxicity anaemia	30%
Fc1ccc([C@@H]2CCNC[C@H]2COc2ccc3c(c2)OCO3)cc1	–	item: Nausea	healthy volunteers	oral, dose not given, given -1 h relative to LSD, with: LSD	direction not given	List of Complaints score	0 score
Oc1ccc2c3c1O[C@H]1[C@@H](O)CC[C@@]4(O)[C@@H](C2)N(CC2CCC2)CC[C@]314	GPR17 (Homo sapiens, UniProt Q13304)	β-arrestin recruitment, TANGO luminescence	–	concentration not given	baseline: basal luminescence	log2 fold change	-0.006
N#C[C@@]1(n2ccc(N)nc2=O)O[C@H](CO)[C@@H](O)[C@H]1O	–	–	CD-1 mouse, plasma	oral, 30 mg/kg	–	AUC(0-inf)	34900 ng·h/mL

Structure (SMILES)	tested on	test	test system	conditions	scale	quantity	value
CN1CC[C@@H](c2c(O)cc(O)c3c(=O)cc(-c4ccc(C(F)(F)F)cc4Cl)oc23)[C@@H]1CO	–	–	human, relapsed/refractory hematologic malignancies	oral, dose not given, of 9 patients discontinued	–	discontinuations unrelated to treatment	6 cases
O=C(Nc1ccccc1)C1CCN(C(=O)Oc2cccnc2)CC1	–	–	healthy female subjects	oral, 20 mg, respiratory, thoracic, mediastinal disorders	–	subjects with respiratory AEs	0%
CC1(C)C(/C=C(\Cl)C(F)(F)F)C1C(=O)OC(C#N)c1cccc(Oc2ccccc2)c1 (stereo not shown)	–	item: CYP2B6	human, age 6 months	–	–	enzyme contribution to clearance	0.31%
O=C(c1ccc(Cl)cc1)N1CCN2C(=O)N(OC(=O)N3CCOc4ccccc43)C(=O)C2C1 (stereo not shown)	PPT2 (Homo sapiens, UniProt Q9UMR5)	MS-based ABPP	SW-620 conditioned medium	10 µM, 1 h, 37 °C	baseline: compound over DMSO, lower = more inhibition	mean protein ratio	0.4
CCS(=O)(=O)Nc1ccc(Oc2ccc(F)cc2F)c(-c2cn(C)c(=O)c3[nH]ccc23)c1	–	Pseudomonal sepsis leading to discontinuation	human, relapsed/refractory AML	oral, dose not given	–	treatment-emergent adverse events	0%
O=S(=O)(Nc1ccccc1)c1ccc(NC(=S)Nc2ccccc2)cc1	–	–	male mouse, blood	oral, 5 mg/kg daily, 14 days	–	cholesterol level	217 mg/dL
Clc1ccc(Cl)c(-c2cc(Cl)ccc2Cl)c1	–	–	Sprague Dawley rat female, adipose tissue	intraperitoneal, 100 mg/kg, 3 weeks	–	concentration	2020 ng/g
COc1ccc(-c2c(-c3ccc(C#N)c(F)c3)nc(N3CCC(N)CC3)n(C)c2=O)cc1F	–	item: esophageal ulcer	human patients	oral, 60 mg, dose expansion	–	serious TEAE incidence	0%
COc1ncccc1-c1cnn2ccc(N3CCN(C(=O)OC(C)C)CC3)nc12	–	–	mouse nerve ligation model, plasma	oral, 3 mg/kg, 30 min after last dose, repeat dosing day 4	–	drug concentration	760 nM
C[C@@H](NC(=O)N1C(=O)[C@H](Cc2ccnc(N)c2)[C@H]1C(=O)O)C1CCCCC1	–	–	healthy adult Chinese volunteers	continuous intravenous infusion, 1.5 mg/kg/h, 5-day infusion, CTCAE 5.0 grading	–	incidence of urine ketone body positive	0%
CC(C)C[C@H](NC(=O)C[C@H](O)[C@H](CC(C)C)NC(=O)[C@H](Cc1c[nH]cn1)NC(=O)CNC(=O)[C@@H](NC(=O)[C@H](C)NC(=O)[C@H](Cc1c[nH]c2ccccc12)NC(=O)[C@H](CCC(N)=O)NC(=O)[C@@H](Cc1ccccc1)NC(=O)CCNC(=O)CCSc1nnc(NCCC(=O)NCCC(=O)NCCCC[C@H](NC(=O)N[C@@H](CCC(=O)O)C(=O)O)C(=O)O)c2c1CCC1C(CC2)C1COC(=O)NCCNC(=O)CC[C@H](C(=O)O)N1CCN(CC(=O)O)CCN(CC(=O)O)CC1)C(C)C)C(N)=O (stereo partly shown) [gallium-68 labelled]	–	–	athymic NMRI nude mice, 22Rv1 xenograft, tumour	intravenous, 2 h, with: bombesin 480 nmol co-injected	–	tissue uptake	1.34 %ID/g
COc1ncnn2ccc(-c3cnc4nc(C)n(Cc5nnc([C@@H](C)F)o5)c4c3)c12	–	–	human	oral, dose not given, grade 2	–	patients with fatigue	7.1%
C[C@H]1COCCN1c1nc(NCc2cccnc2C(F)(F)F)c2cccnc2n1	–	–	conscious rat	intravenous, 10 mg/kg	baseline: control	QRS change	11.5%
CC[C@H](C)[C@H](NC(=O)[C@H](Cc1ccccc1)NC(=O)[C@H](CCC(=O)O)NC(=O)[C@H](CCCNC(=N)N)NC(=O)[C@H](C)NC(=O)[C@H](C)NC(=O)[C@H](CCC(N)=O)NC(=O)[C@H](CCC(=O)O)NC(=O)[C@H](CCC(=O)O)NC(=O)[C@H](CC(C)C)NC(=O)[C@H](Cc1ccc(O)cc1)NC(=O)[C@H](CO)NC(=O)[C@H](CO)NC(=O)[C@@H](NC(=O)[C@H](CC(=O)O)NC(=O)[C@H](CO)NC(=O)[C@@H](NC(=O)[C@H](Cc1ccccc1)NC(=O)[C@@H](NC(=O)CNC(=O)[C@H](CCC(=O)O)NC(=O)[C@H](C)NC(=O)CCc1c[nH]cn1)[C@@H](C)O)[C@@H](C)O)C(C)C)C(=O)N[C@@H](C)C(=O)N[C@@H](Cc1c[nH]c2ccccc12)C(=O)N[C@@H](CC(C)C)C(=O)N[C@H](C(=O)N[C@@H](CCCNC(=N)N)C(=O)NCC(=O)N[C@@H](CCCNC(=N)N)C(=O)N[C@@H](CCCCNC(=O)COCCOCCNC(=O)COCCOCCNC(=O)CC[C@H](NC(=O)CCCCCCCCCCCCCCCCC(=O)O)C(=O)O)C(=O)NCC(=O)NCC(=O)N[C@@H](CO)C(=O)N[C@@H](CCCCNc1c(NCCCCCN(O)C(=O)CCC(=O)NCCCCCN(O)C(=O)CCC(=O)NCCCCCN(O)C(C)=O)c(=O)c1=O)C(=O)O)C(C)C [zirconium-89 labelled]	–	–	rat, bone marrow	iv, 3 nmol/kg, 72 h, ex vivo	–	tissue uptake	0.49 %ID/g
Cc1cccc(Cn2nc(C3CC3)c3c(NC(=O)c4cnc5cc(OCCN6CCN(C)CC6)ccn45)cccc32)n1	–	item: Amylase increased	human advanced solid tumours	oral, 400 mg, all-causality	–	adverse events incidence	14.3%
CN(C)CCCN1c2ccccc2Sc2ccc(Cl)cc21	–	–	human liver microsomes	concentration not given	–	microsomal binding	92.2%
COc1ccc2nc3cc(Cl)ccc3c(Nc3cc(CN4CCCC4)c(O)c(CN4CCCC4)c3)c2n1	–	–	mouse, blood	intraperitoneal, 28 mg/kg	–	mean corpuscular volume	44.5 fL
O=C1Nc2cc3[nH]nc(-c4ccncc4)c3cc2CN1Cc1ccccc1	–	CTCAE v4.03	human, relapsed or refractory advanced solid tumours	intravenous, 3.6 mg/kg	–	patients with vitreous floaters	67%
C[C@H]1CN(c2n[nH]c3nc(N[C@H]4CC[C@H](NS(=O)(=O)CCC(F)(F)F)CC4)ncc23)CCO1	CBR1 (Homo sapiens, UniProt P16152)	inhibitor, Kinobeads competition profiling	–	0.032 µM	baseline: vehicle	relative abundance	1
O=[N+]([O-])c1ccc2c(c1)S(=O)(=O)C=C2	–	flow cytometry	male C57BL/6 mice, spleen	i.p., 20 mg/kg, 8 days	baseline: CD45+ cells	CD8+ cells	12.2%
